{"data": "Results gathered from unrelated publications", "note": "A part holds a random share of what one study measured. “And” joins repeats or separate records; there may be more than shown.", "UniProt Q99759, sequence (whole entry, looked up)": "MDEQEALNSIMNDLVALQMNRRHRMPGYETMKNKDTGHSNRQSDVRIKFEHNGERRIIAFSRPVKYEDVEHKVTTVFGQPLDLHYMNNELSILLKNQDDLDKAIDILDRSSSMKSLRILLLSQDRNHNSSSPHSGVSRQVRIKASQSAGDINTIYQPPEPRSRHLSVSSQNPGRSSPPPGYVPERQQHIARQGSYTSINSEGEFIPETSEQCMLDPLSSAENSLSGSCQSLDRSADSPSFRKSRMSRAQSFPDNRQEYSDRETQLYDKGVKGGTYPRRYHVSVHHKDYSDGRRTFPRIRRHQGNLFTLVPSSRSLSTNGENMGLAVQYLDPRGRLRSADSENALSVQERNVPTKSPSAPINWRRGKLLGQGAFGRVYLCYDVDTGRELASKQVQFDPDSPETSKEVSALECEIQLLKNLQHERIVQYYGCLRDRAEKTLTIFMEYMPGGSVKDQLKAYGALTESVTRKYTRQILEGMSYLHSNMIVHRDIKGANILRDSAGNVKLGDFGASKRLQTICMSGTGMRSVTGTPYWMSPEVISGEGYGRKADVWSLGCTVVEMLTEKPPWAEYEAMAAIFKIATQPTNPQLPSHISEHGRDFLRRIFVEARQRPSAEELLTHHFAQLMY", "UniProt Q9UK32, sequence (whole entry, looked up)": "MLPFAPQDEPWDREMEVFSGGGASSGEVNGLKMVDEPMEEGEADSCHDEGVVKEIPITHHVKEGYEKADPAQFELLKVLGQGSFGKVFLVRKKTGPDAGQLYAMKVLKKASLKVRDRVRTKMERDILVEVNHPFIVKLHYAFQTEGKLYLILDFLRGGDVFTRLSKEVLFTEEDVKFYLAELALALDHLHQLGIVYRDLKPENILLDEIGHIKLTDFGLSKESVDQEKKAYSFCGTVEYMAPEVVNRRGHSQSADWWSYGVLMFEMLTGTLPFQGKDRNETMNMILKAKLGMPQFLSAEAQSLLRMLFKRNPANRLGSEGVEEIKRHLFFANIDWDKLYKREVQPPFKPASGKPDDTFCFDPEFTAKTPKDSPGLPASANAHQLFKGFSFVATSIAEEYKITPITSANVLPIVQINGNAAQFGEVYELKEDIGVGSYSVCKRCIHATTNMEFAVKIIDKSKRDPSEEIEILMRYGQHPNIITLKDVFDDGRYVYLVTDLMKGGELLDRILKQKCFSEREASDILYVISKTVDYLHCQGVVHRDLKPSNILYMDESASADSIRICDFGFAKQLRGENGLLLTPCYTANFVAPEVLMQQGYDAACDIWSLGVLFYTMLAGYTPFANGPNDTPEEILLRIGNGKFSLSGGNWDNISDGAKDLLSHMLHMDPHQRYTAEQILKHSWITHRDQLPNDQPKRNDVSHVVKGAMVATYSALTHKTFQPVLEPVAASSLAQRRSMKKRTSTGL", "UniProt Q9NRP7, sequence (whole entry, looked up)": "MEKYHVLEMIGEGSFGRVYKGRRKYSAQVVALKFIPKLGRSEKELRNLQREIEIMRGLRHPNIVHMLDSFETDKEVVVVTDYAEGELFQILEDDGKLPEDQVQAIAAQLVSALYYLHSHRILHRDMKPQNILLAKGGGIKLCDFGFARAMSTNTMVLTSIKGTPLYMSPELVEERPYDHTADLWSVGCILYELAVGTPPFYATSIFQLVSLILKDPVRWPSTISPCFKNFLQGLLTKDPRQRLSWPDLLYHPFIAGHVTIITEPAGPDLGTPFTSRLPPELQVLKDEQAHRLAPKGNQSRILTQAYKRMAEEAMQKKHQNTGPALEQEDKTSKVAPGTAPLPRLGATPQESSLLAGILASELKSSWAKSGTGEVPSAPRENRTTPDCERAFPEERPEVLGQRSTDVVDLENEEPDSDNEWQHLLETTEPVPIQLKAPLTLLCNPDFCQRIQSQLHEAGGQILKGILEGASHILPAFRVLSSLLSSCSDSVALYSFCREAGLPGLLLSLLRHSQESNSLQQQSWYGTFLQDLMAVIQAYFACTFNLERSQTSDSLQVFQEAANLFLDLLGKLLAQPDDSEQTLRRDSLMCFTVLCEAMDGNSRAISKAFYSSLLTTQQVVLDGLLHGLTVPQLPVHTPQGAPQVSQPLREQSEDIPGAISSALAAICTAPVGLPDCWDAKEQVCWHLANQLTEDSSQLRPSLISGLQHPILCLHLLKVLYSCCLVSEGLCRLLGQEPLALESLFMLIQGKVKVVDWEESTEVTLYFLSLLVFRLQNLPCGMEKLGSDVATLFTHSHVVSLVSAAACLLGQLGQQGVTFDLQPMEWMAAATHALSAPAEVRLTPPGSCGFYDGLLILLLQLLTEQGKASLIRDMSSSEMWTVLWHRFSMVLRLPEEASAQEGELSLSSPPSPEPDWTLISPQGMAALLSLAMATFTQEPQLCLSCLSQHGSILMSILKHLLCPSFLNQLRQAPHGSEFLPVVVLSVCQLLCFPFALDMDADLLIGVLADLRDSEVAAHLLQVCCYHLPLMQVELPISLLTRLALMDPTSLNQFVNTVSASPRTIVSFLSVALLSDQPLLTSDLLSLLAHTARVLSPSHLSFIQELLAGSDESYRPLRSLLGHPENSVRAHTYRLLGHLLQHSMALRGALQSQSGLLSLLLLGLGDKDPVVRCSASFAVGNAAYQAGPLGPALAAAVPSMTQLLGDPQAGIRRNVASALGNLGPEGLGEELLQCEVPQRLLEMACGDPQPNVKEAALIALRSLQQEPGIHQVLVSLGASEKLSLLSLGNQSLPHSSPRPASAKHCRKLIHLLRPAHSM", "UniProt P00519, sequence (whole entry, unmodified, looked up)": "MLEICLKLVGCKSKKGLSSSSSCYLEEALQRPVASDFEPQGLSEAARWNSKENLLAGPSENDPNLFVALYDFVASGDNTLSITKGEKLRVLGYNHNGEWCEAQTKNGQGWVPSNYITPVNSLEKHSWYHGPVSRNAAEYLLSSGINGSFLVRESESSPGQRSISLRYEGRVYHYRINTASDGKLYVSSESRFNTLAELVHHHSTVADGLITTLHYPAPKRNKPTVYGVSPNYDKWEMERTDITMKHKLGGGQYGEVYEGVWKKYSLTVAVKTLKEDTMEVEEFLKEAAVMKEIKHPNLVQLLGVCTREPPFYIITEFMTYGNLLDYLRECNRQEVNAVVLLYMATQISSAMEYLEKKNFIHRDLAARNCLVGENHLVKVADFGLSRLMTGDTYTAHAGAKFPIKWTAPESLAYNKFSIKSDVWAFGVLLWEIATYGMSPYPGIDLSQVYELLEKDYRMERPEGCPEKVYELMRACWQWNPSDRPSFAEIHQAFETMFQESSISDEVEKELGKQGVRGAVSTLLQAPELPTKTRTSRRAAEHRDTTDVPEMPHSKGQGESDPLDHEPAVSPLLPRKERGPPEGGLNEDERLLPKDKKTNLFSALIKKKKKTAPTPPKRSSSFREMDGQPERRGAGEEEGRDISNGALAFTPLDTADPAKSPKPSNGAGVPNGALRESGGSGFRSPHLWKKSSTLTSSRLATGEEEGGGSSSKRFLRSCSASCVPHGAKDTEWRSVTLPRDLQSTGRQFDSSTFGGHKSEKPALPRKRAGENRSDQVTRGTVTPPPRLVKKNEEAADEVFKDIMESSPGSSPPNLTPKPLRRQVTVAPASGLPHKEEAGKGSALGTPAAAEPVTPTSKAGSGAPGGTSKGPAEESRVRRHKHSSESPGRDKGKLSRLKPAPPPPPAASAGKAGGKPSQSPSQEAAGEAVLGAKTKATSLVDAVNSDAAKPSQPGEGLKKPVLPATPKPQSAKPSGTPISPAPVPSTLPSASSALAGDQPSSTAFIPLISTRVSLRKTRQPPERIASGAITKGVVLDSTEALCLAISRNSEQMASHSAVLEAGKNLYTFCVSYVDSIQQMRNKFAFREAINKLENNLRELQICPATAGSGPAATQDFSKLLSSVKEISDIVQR", "UniProt Q86YV6, sequence (whole entry, looked up)": "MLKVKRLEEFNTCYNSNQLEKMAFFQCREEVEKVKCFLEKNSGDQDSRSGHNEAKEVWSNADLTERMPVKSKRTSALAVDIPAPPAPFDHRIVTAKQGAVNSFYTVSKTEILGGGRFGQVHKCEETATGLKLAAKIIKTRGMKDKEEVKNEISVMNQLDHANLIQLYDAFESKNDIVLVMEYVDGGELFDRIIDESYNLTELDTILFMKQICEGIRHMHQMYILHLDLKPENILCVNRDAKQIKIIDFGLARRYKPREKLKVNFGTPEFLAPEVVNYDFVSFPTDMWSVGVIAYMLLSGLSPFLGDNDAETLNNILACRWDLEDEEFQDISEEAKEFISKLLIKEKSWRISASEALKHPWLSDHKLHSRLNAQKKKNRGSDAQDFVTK"}
{"data": "Sample 1", "Compound": "O=C(Nc1cccnn1)N1CCC(=Cc2cccc(Oc3ccc(C(F)(F)F)cn3)c2)CC1", "effect on": "cell-free assay", "technique": "competition with immobilised ligand", "tested at": "1 µM"}
{"target": "Phosphatidylinositol 4,5-bisphosphate 3-kinase catalytic subunit alpha isoform (PIK3CA, Homo sapiens, UniProt P42336, Q546K)", "remaining binding": "45%"}
{"target": "Mitogen-activated protein kinase kinase kinase 3 (MAP3K3, Homo sapiens, UniProt Q99759)", "remaining binding": "100%"}
{"target": "Epidermal growth factor receptor (EGFR, Homo sapiens, UniProt P00533, del746-750)", "remaining binding": "73%"}
{"target": "Serine/threonine-protein kinase haspin (HASPIN, Homo sapiens, UniProt Q8TF76)", "remaining binding": "100%"}
{"target": "Serine/threonine-protein kinase 10 (STK10, Homo sapiens, UniProt O94804)", "remaining binding": "74%"}
{"target": "Mitogen-activated protein kinase kinase kinase 1 (MAP3K1, Homo sapiens, UniProt Q13233)", "remaining binding": "100%"}
{"target": "Serine/threonine-protein kinase 36 (STK36, Homo sapiens, UniProt Q9NRP7)", "remaining binding": "100%"}
{"target": "SRSF protein kinase 1 (SRPK1, Homo sapiens, UniProt Q96SB4)", "remaining binding": "97%"}
{"target": "Ribosomal protein S6 kinase alpha-6, C-terminal kinase domain (RPS6KA6, Homo sapiens, UniProt Q9UK32)", "remaining binding": "100%"}
{"target": "Ephrin type-A receptor 8 (EPHA8, Homo sapiens, UniProt P29322)", "remaining binding": "100%"}
{"target": "Myosin light chain kinase family member 4 (MYLK4, Homo sapiens, UniProt Q86YV6)", "remaining binding": "100%"}
{"target": "Casein kinase I isoform alpha-like (CSNK1A1L, Homo sapiens, UniProt Q8N752)", "remaining binding": "76%"}
{"target": "Epidermal growth factor receptor (EGFR, Homo sapiens, UniProt P00533, L858R)", "remaining binding": "100%"}
{"target": "MAP kinase-interacting serine/threonine-protein kinase 2 (MKNK2, Homo sapiens, UniProt Q9HBH9)", "remaining binding": "100%"}
{"target": "Fibroblast growth factor receptor 1 (FGFR1, Homo sapiens, UniProt P11362)", "remaining binding": "100%"}
{"target": "Tyrosine-protein kinase ABL1, non-phosphorylated (ABL1, Homo sapiens, UniProt P00519, F317L)", "remaining binding": "100%"}
{"target": "Hepatocyte growth factor receptor (MET, Homo sapiens, UniProt P08581, M1250T)", "remaining binding": "100%"}
{"data": "Sample 2", "target": "Calcium/calmodulin-dependent protein kinase type II subunit gamma (CAMK2G, Homo sapiens, UniProt Q13555)", "effect on": "enzyme activity", "action": "inhibitor", "tested at": "0.5 µM", "baseline": "control", "UniProt Q13555, sequence (whole entry, looked up)": "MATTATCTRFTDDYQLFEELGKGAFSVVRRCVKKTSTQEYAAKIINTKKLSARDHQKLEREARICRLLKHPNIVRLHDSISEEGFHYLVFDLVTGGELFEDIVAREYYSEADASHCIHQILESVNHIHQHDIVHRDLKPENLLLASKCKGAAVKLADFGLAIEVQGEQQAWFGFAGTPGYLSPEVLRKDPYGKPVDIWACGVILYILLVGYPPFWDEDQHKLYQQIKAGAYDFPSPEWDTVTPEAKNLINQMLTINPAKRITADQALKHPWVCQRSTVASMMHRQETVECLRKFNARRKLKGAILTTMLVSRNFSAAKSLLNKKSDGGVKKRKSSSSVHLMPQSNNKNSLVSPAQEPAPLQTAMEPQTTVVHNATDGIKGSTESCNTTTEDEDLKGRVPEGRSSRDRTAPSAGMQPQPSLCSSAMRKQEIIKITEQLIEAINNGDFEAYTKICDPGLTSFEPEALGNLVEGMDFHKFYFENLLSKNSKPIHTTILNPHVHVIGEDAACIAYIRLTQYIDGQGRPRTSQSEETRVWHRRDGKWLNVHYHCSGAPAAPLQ"}
{"Structure (SMILES)": "CCOc1cc2ncnc(Nc3cccc(Br)c3)c2cc1OCC", "remaining activity": "96.5%"}
{"Structure (SMILES)": "COc1ccc(-c2cnc3c(-c4ccsc4)cnn3c2)cc1", "remaining activity": "93.7%"}
{"Structure (SMILES)": "COc1cc2ncc(-c3ccccc3)nc2cc1OC", "remaining activity": "94.5%"}
{"Structure (SMILES)": "COc1cc2ncnc(Nc3ccc(OCc4ccccc4)cc3)c2cc1OC", "remaining activity": "94.2%"}
{"Structure (SMILES)": "O=C1NC(=O)/C(=C/c2ccc3nccnc3c2)S1", "remaining activity": "101%"}
{"Structure (SMILES)": "COc1cc2ncnc(N3CCN(C(=O)Nc4ccc(Oc5ccccc5)cc4)CC3)c2cc1OC", "remaining activity": "100%"}
{"Structure (SMILES)": "COc1ccc(Cl)cc1NC(=O)Nc1cc(C)nc2ccccc12", "remaining activity": "91.6%"}
{"Structure (SMILES)": "Cn1cc(/C=C2\\C(=O)Nc3ccc(S(N)(=O)=O)cc32)c2ccccc21", "remaining activity": "91.9%"}
{"Structure (SMILES)": "CC(C)[C@H](CO)Nc1nc(Nc2cccc(Cl)c2)c2ncn(C(C)C)c2n1", "remaining activity": "96.9%"}
{"Structure (SMILES)": "CC(=O)O/N=C1/C(c2c(O)[nH]c3cc(Br)ccc23)=Nc2ccccc21", "remaining activity": "70.6%"}
{"Structure (SMILES)": "Cn1cnc2cc3c(Nc4cccc(Br)c4)ncnc3cc21", "remaining activity": "104%"}
{"Structure (SMILES)": "Nc1[nH]nc2nnc(-c3c(-c4ccccc4)nn4ccccc34)cc12", "remaining activity": "96.7%"}
{"Structure (SMILES)": "C[S+]([O-])c1ccc(-c2nc(-c3ccncc3)c(-c3ccc(F)cc3)[nH]2)cc1 (stereo not drawn)", "remaining activity": "82.2%"}
{"Structure (SMILES)": "CC(C)c1nn(-c2c(Cl)cccc2Cl)c2nc(Cc3ccc(OCCO)cc3)[nH]c(=O)c12", "remaining activity": "98.9%"}
{"Structure (SMILES)": "O=c1cc(N2CCOCC2)oc2c1ccc1ccccc12", "remaining activity": "95.5%"}
{"Structure (SMILES)": "CCN1/C(=C/C(C)=O)Sc2ccc(OC)cc21", "remaining activity": "90.4%"}
{"Structure (SMILES)": "Cc1ccc(NC(=O)c2ccc(CN3CCN(C)CC3)cc2)cc1Nc1nccc(-c2cccnc2)n1", "remaining activity": "102%"}
{"Structure (SMILES)": "CCC(=O)Nc1ccc2ncnc(Nc3cccc(Br)c3)c2c1", "remaining activity": "105%"}
{"Structure (SMILES)": "O=C(Nc1ccc(Cl)cc1)c1ccccc1NCc1ccncc1", "remaining activity": "89.2%"}
{"Structure (SMILES)": "Cc1nc(Nc2ncc(C(=O)Nc3c(C)cccc3Cl)s2)cc(N2CCN(CCO)CC2)n1", "remaining activity": "103%"}
{"Structure (SMILES)": "CN(C)CCCn1cc(C2=C(c3c[nH]c4ccccc34)C(=O)NC2=O)c2ccccc21", "remaining activity": "73.3%"}
{"data": "Sample 3", "Structure (SMILES)": "CC(=O)N[C@@H](Cc1c[nH]c2ccccc12)C(=O)N[C@@H](CCC(=O)C=[N+]=[N-])C(=O)OC(C)C", "route": "subcutaneous", "dose": "0.3 mg/kg/day DON equivalent", "time": "5 days", "reading": "higher = more metabolite"}
{"technique": "UPLC-MS/MS metabolomics", "item": "dihydroxyacetone phosphate", "cell line": "EL4", "host": "C57BL/6 CES1-/- mice, EL4 tumour", "sample": "tumour", "metabolite peak area": "2.86e+06 a.u. and 2.75e+06 a.u. and 2.55e+06 a.u. and 1.92e+06 a.u. and 1.84e+06 a.u. and 2.42e+06 a.u."}
{"technique": "UPLC-MS/MS", "item": "3-indoxyl sulfate", "host": "C57BL/6 CES1-/- mice", "sample": "EL4 tumour", "metabolite peak area": "535000 a.u. and 1.29e+06 a.u. and 329000 a.u. and 1.58e+06 a.u. and 243000 a.u. and 865000 a.u."}
{"technique": "UPLC-MS/MS", "item": "uridine", "host": "C57BL/6 CES1-/- mice", "sample": "EL4 tumour", "metabolite peak area": "3.29e+07 a.u. and 9.85e+06 a.u. and 2.9e+07 a.u. and 3.12e+07 a.u. and 2.96e+07 a.u. and 1.35e+07 a.u."}
{"technique": "UPLC-MS/MS", "item": "tryptophan", "host": "C57BL/6 CES1-/- mice", "sample": "EL4 tumour", "metabolite peak area": "4.14e+08 a.u. and 4.31e+08 a.u. and 4e+08 a.u. and 3.99e+08 a.u. and 4.62e+08 a.u. and 3.11e+08 a.u."}
{"technique": "UPLC-MS/MS metabolomics", "item": "creatine", "cell line": "EL4", "host": "C57BL/6 CES1-/- mice, EL4 tumour", "sample": "tumour", "metabolite peak area": "3.68e+09 a.u. and 3.22e+09 a.u. and 4.6e+09 a.u. and 5.93e+09 a.u. and 5.32e+09 a.u. and 7.46e+09 a.u."}
{"technique": "UPLC-MS/MS metabolomics", "item": "equol sulfate", "cell line": "EL4", "host": "C57BL/6 CES1-/- mice, EL4 tumour", "sample": "tumour", "metabolite peak area": "78500 a.u. and 114000 a.u. and 111000 a.u. and 92600 a.u. and 143000 a.u."}
{"technique": "UPLC-MS/MS metabolomics", "item": "dimethylglycine", "cell line": "EL4", "host": "C57BL/6 CES1-/- mice, EL4 tumour", "sample": "tumour", "metabolite peak area": "6.61e+06 a.u. and 9.07e+06 a.u. and 6.22e+06 a.u. and 6.79e+06 a.u. and 7.65e+06 a.u. and 5.47e+06 a.u."}
{"technique": "UPLC-MS/MS metabolomics", "item": "fructose 6-phosphate", "cell line": "EL4", "host": "C57BL/6 CES1-/- mice, EL4 tumour", "sample": "tumour", "metabolite peak area": "2.42e+07 a.u. and 1.3e+07 a.u. and 1.94e+07 a.u. and 1.83e+07 a.u. and 2.04e+07 a.u. and 1.41e+07 a.u."}
{"technique": "UPLC-MS/MS metabolomics", "item": "fructose", "cell line": "EL4", "host": "C57BL/6 CES1-/- mice, EL4 tumour", "sample": "tumour", "metabolite peak area": "2.53e+07 a.u. and 1.87e+07 a.u. and 2.69e+07 a.u. and 8.02e+06 a.u. and 1.41e+07 a.u. and 7.81e+06 a.u."}
{"technique": "UPLC-MS/MS metabolomics", "item": "cystathionine", "cell line": "EL4", "host": "C57BL/6 CES1-/- mice, EL4 tumour", "sample": "tumour", "metabolite peak area": "1.3e+06 a.u. and 2.47e+06 a.u. and 2.17e+06 a.u. and 1.99e+06 a.u. and 2.4e+06 a.u. and 1.59e+06 a.u."}
{"data": "Sample 4", "SMILES": "COc1cc(C(=O)N2CCC(N3CCN(C)CC3)CC2)ccc1Nc1ncc2c(n1)N(C)c1ccccc1C(=O)N2C", "technique": "KINOMEscan", "tested at": "10 µM", "baseline": "DMSO control", "reading": "lower = stronger binding"}
{"target": "CAMK2B", "binding [%]": 62}
{"target": "ANKK1", "binding [%]": 100}
{"target": "EPHB1", "binding [%]": 98}
{"target": "CDC2L2", "binding [%]": 82}
{"target": "NDR2", "binding [%]": 100}
{"target": "PCTK1", "binding [%]": 96}
{"target": "PIK3CA", "binding [%]": 74}
{"target": "BRAF", "binding [%]": 81}
{"target": "ASK2", "binding [%]": 100}
{"target": "SRC", "binding [%]": 100}
{"target": "DAPK1", "binding [%]": 73}
{"target": "MYLK4", "binding [%]": 80}
{"target": "PRP4", "binding [%]": 93}
{"target": "MUSK", "binding [%]": 99}
{"target": "CSNK1G3", "binding [%]": 93}
{"note": "Excerpt of the above (sample 1):"}
{"target": "Serine/threonine-protein kinase haspin (HASPIN, Homo sapiens, UniProt Q8TF76)", "remaining binding": "100%"}
{"target": "Serine/threonine-protein kinase 36 (STK36, Homo sapiens, UniProt Q9NRP7)", "remaining binding": "100%"}
{"target": "Epidermal growth factor receptor (EGFR, Homo sapiens, UniProt P00533, del746-750)", "remaining binding": "73%"}
{"target": "Mitogen-activated protein kinase kinase kinase 1 (MAP3K1, Homo sapiens, UniProt Q13233)", "remaining binding": "100%"}
{"target": "Phosphatidylinositol 4,5-bisphosphate 3-kinase catalytic subunit alpha isoform (PIK3CA, Homo sapiens, UniProt P42336, Q546K)", "remaining binding": "45%"}
{"target": "Ephrin type-A receptor 8 (EPHA8, Homo sapiens, UniProt P29322)", "remaining binding": "100%"}
